Experimental data collected from several papers.
A part holds a random share of what one study measured. Positions count from the first letter of the parent shown.

Study 1 — target: CCNB2, cyclin fold, Cln2 fusion (human); method: yeast growth competition, sequencing; medium: yeast; notes: weak parent motif; relative to: not given; direction: higher = stronger binding
Starting sequence: CDC25A docking peptide (human); PPHRRRLLFACSP; partner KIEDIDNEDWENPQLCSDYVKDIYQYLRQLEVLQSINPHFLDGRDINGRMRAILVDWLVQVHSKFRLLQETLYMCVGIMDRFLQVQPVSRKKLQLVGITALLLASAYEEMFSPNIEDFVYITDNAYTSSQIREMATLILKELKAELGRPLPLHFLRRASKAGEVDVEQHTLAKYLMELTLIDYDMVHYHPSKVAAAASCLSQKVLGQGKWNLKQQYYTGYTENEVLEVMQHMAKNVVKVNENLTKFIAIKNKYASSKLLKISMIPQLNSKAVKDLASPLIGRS
| Variant | normalised enrichment score |
| --- | --- |
| A10P | -0.145 |
| P1H | 0.784 |
| P13M | -0.0786 |
| S12V | 0.746 |
| R5K F9L | 0.57 |
| L7P | 0.167 |
| R4T | 0.433 |
| L8V | 0.47 |
| P2G | 0.839 |
| R6F | 0.000384 |
| C11T | 0.243 |
| L7Q | 0.318 |
| L8W | 0.801 |
| P1K | 0.853 |
| P1W | 0.603 |
| P1D | 0.193 |
| A10Y | -0.0368 |
| P2D | 0.387 |
| S12T | 0.233 |
| R5I | 0.734 |
| R5C | 0.129 |
| L7T | 0.914 |
| L8N | 0.256 |
| L7W | 0.43 |
| R6K | 0.662 |

Study 2 — method: DHFR PCA, deep sequencing; medium: yeast; with: (+)-ABA 0.032 µM; relative to: wild-type fitted maximum; direction: higher = stronger binding
Target: ABI1, truncated, D143A, DHFR fusion (Arabidopsis thaliana)
Notes: methotrexate growth selection, single substitutions
Starting sequence: PYL1, truncated, DHFR fusion (Arabidopsis thaliana); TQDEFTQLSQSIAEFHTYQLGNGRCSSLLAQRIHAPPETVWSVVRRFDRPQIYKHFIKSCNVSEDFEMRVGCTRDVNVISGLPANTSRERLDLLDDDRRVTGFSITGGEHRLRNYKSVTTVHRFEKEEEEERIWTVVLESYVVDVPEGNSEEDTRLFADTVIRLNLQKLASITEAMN
| Variant | relative binding score [%] |
| --- | --- |
| D95R | -1.21 |
| F56N | -4.52 |
| T17F | -5.2 |
| F124T | -0.253 |
| S150I | -3.66 |
| I57L | 1.88 |
| S150H | 22.8 |
| D159T | -2.33 |
| V136I | 21.1 |
| K168G | -4.15 |
| D48L | 2.92 |
| A175C | 7.63 |
| E109G | 3.88 |
| F157Y | 38 |

Study 3 — method: RNA Bind-n-Seq; form: RNA; medium: in vitro; tested at: 200 nM; notes: whole 134-nt RNA, ends assumed; with: 150 mM LiCl; relative to: input library; direction: higher = stronger binding; each molecule: 7-deaza-guanosine replaces G
Target: Fragile X messenger ribonucleoprotein 1, C-terminal low-complexity region (Fmr1, Mus musculus, UniProt P35922)
All sequences stand within: GGGAGUUCUACAGUCCGACGAUC … UGGAAUUCUCGGGUGUCAAGG
| Sequence | log2 enrichment |
| --- | --- |
| CAAGUCCUGUGCUACACAUCGUAUGUACCGAAUCGGGAGGGUUUUUGGGUUUGGGAAAGUAUUAUGUUACGCCGUUCGGAUCUGCACUUC | -1.37 |
| CCUGUGCUACACAUCGUAUGUACCGAAUCGGGCCCCCCGGGCCCCCCGGGCCCCCCGGGGAAAGUAUUAUGUUACGCCGUUCGGAUCUGC | -2.49 |
| UAACUUUAGAGGAGGAUCUGAUGGAUAUGGCAGUGGACGUGGAUUUGGGGAUGGCUAUAAUGGGUAUGGAGGAGGUCCUGGAGGUGGCAA | 0.737 |
| CUCAAGUCCUGUGCUACACAUCGUAUGUACCGAAUCGGCCGGCCGGGGCCGGGGAAAGUAUUAUGUUACGCCGUUCGGAUCUGCACUUCC | -0.339 |
| UCCUGUGCUACACAUCGUAUGUACCGAAUCGGGAAAAAAAGGGUUUGGGUUUUUUUGGGAAAGUAUUAUGUUACGCCGUUCGGAUCUGCA | -1.57 |
| UCAAGUCCUGUGCUACACAUCGUAUGUACCGAAUCGGGAGGGUUUGGGAAAGGGAAAGUAUUAUGUUACGCCGUUCGGAUCUGCACUUCC | -0.733 |
| GUCCUGUGCUACACAUCGUAUGUACCGAAUCGGGAAAGGGAAAAAAAGGGUUUUUGGGAAAGUAUUAUGUUACGCCGUUCGGAUCUGCAC | -1.41 |
| GCAGGAAGUAAAAACAAAUGCAAAUGCUUCGGAUAGUGGCAGGGGUGGGGGUUGCUAAGGAAAGGGUGGGAUGGGAGUGGGUAAAGAGUU | 1.22 |

Study 4 — method: protein-binding microarray; form: double-stranded DNA, one strand shown; medium: in vitro; tested at: 2540 nM top; notes: 60-bp whole probe; with: salmon DNA 0.4 mg/ml; relative to: random background probes; direction: higher = stronger binding; all sequences stand within: GCCTAGCAC … GTCTTGATTCGCTTGACGCTGCTG
Target: Interferon regulatory factor 3, full length, phosphomimetic (IRF3, Homo sapiens, UniProt Q14653, residues 1-427, S386D/S396D/S398D/S402D/T404D/S405D)
Sequence of UniProt Q14653 (whole entry, unmodified, looked up): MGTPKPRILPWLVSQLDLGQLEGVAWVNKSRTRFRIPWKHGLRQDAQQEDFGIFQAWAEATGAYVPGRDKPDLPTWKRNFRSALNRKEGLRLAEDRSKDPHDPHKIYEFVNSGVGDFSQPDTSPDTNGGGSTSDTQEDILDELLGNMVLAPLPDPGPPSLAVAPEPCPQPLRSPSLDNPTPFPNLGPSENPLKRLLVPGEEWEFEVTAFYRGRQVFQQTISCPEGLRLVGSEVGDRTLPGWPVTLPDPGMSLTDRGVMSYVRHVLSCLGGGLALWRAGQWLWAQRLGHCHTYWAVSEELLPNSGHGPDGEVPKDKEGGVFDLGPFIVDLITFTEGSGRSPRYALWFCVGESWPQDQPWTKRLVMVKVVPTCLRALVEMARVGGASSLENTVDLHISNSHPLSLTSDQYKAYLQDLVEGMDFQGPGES
| Sequence | fitted relative affinity |
| --- | --- |
| GACGGTTTCGGATTTCGGGACGTGCTA | 7.64 z-score |
| GACGGTCTCCTTCTCCTGGCGTGCTAG | 4.27 z-score |
| GACGGTAGCGGTATCGGGACGTGCTAG | 1.05 z-score |
| TTAGATATCGGGACTGTATTAGTGCTA | 0.0986 z-score |
| GACGGACTGGGGTTTCGGGAGGTGCTA | 0.119 z-score |
| TCAAATTTCTTCCTCCCACTGTGCTAG | 0.343 z-score |
| CACAGTCTGAGATCCAGAAGGTGCTAG | 0.414 z-score |
| TCATATATCTTATCCTAACTGTGCTAG | 1.33 z-score |
| GACGAACTGAGTCTCGATACGTGCTAG | 0.028 z-score |
| TTAGGCATCGGACTGGGTTAGTGCTAG | -0.926 z-score |
| GACGAACCGGGGTTTCGAGACGTGCTA | 0.574 z-score |
| GACCGACTGGACTTTCGGGACGTGCTA | 0.448 z-score |
| GACGGACAGGGACTGGGGACGTGCTAG | -0.858 z-score |
| AACGGTTTCGACTTTCGGGACGTGCTA | 3.87 z-score |
| TTAGGTATCCTTTTCCTTAAGTGCTAG | 8.98 z-score |
| TTTCCTCTTTCTTTGCTTCAGTGCTAG | 5.85 z-score |
| TTAGATTTCAGTTCCCATTAGTGCTAG | 3.8 z-score |
| GACGGTCTCGGTCTCGGGAAGTGCTAG | 1.41 z-score |
| TTAGAAGTGGGGACTGGATTAGTGCTA | -0.695 z-score |
